Published values gathered from unrelated publications.
± gives the spread as reported.
ALOX5: Polyunsaturated fatty acid 5-lipoxygenase (ALOX5, Homo sapiens, UniProt P09917)
Grin1/Grin2b: Glutamate NMDA receptor; Grin1/Grin2b (Grin1/Grin2b, Rattus norvegicus, UniProt P35439+Q00960)
NQO2: Ribosyldihydronicotinamide dehydrogenase [quinone] (NQO2, Homo sapiens, UniProt P16083)

Amino acid sequences for entries named in this document (tags omitted). Residues count along the entry.
UniProt P09917, whole entry: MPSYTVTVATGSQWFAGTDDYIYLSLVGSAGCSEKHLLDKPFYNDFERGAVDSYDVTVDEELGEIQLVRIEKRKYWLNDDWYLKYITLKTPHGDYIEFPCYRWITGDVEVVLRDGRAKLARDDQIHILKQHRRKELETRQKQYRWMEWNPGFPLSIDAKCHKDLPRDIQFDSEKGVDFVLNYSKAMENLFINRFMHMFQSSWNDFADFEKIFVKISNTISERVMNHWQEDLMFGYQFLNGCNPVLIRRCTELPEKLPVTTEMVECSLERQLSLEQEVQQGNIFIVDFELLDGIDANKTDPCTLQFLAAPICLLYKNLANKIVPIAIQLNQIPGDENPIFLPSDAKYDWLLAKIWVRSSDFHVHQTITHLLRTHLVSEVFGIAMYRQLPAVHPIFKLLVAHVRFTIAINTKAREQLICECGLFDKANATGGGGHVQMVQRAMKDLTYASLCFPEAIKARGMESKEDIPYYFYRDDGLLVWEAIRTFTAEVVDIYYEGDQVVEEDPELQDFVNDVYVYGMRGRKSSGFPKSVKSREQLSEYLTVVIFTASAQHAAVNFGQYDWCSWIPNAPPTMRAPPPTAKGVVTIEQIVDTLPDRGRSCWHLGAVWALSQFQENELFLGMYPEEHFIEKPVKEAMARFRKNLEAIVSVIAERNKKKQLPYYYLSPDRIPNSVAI
UniProt Q00960, 27-1482 limits assumed: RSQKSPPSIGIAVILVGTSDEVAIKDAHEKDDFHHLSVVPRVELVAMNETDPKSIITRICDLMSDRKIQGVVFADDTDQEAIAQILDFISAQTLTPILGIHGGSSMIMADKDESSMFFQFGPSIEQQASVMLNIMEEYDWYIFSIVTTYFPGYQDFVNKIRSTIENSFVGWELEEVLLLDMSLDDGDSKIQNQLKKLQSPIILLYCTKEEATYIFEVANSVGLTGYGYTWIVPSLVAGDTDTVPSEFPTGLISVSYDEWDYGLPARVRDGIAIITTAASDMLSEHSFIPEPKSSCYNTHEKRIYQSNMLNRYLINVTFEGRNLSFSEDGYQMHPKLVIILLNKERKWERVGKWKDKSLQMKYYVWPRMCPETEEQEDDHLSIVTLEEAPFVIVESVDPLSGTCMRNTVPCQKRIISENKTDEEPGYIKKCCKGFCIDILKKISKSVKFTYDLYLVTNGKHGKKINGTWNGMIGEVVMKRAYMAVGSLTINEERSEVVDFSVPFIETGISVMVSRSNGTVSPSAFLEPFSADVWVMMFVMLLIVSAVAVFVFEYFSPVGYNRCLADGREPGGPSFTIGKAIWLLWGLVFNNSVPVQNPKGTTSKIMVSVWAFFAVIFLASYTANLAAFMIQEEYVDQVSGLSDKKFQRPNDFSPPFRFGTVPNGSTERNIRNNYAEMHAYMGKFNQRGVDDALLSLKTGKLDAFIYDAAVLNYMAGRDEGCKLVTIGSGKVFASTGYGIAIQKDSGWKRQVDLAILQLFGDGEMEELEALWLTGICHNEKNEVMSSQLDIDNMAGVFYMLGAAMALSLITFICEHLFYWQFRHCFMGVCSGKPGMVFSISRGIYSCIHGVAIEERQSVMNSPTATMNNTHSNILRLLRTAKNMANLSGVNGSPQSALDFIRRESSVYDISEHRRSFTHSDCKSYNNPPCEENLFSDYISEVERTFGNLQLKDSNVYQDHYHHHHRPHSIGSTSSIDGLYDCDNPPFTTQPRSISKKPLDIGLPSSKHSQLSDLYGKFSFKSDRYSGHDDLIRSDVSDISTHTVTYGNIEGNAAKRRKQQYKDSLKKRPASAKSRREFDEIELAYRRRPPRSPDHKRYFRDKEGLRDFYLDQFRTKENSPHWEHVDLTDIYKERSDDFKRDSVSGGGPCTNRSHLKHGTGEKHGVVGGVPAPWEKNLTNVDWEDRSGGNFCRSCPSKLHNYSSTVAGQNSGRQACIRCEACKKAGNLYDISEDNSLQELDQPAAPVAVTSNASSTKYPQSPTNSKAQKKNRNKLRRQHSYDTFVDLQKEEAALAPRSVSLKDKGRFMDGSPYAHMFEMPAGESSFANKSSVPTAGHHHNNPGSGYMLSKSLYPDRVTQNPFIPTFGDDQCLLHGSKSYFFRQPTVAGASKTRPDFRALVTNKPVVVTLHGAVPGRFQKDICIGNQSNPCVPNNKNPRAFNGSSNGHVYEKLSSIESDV
UniProt P16083, whole entry: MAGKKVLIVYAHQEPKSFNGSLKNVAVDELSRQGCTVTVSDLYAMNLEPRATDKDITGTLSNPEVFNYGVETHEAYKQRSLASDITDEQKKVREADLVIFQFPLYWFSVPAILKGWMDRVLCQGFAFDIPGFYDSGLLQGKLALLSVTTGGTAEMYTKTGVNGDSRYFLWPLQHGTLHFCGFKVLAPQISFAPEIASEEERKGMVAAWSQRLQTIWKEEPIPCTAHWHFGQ
UniProt P51570, whole entry: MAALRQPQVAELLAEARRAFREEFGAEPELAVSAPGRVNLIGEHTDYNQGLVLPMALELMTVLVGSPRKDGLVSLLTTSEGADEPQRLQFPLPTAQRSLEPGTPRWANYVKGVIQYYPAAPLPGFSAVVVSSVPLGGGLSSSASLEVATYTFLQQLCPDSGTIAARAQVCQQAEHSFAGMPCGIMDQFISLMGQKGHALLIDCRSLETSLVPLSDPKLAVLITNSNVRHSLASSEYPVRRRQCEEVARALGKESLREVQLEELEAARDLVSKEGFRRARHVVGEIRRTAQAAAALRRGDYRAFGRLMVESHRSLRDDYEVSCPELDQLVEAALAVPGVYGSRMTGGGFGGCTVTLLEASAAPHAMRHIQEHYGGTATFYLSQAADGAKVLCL
UniProt Q00959, 23-1464 limits assumed: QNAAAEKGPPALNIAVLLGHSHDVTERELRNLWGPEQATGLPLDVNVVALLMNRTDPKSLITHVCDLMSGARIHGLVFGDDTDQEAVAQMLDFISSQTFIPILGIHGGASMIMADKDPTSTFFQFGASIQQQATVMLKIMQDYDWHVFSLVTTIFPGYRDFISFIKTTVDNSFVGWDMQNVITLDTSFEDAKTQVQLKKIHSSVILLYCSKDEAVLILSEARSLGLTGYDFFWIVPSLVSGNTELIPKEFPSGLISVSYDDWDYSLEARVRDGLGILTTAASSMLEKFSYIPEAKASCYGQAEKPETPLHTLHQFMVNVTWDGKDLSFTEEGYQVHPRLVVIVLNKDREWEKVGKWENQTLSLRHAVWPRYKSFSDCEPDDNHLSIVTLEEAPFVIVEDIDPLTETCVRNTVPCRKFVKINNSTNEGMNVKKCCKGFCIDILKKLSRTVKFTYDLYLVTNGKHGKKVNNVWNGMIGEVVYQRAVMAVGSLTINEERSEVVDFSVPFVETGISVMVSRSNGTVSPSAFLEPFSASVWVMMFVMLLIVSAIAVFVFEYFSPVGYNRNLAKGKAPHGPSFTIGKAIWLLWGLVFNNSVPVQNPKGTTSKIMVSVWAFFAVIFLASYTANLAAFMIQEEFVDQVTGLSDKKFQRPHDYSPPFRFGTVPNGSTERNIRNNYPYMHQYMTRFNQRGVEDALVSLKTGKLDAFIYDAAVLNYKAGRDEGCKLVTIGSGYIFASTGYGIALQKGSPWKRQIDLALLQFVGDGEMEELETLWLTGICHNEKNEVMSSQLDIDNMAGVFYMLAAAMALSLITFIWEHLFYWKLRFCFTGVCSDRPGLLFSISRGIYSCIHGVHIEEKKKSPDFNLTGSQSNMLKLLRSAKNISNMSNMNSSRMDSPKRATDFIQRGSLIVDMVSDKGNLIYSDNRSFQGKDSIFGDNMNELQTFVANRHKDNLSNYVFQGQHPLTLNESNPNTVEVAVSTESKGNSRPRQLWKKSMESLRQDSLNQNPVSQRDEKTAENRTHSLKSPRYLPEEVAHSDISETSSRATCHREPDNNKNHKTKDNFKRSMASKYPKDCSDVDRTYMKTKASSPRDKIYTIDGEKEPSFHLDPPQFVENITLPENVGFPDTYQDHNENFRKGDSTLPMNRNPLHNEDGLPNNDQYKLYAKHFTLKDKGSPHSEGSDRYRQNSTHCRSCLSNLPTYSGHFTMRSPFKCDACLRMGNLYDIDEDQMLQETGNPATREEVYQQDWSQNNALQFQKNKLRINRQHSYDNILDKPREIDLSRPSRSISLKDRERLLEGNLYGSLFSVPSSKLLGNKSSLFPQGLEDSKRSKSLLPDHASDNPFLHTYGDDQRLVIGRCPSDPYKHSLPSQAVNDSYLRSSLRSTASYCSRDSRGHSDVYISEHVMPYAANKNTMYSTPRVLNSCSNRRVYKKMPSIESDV
UniProt O14757, whole entry: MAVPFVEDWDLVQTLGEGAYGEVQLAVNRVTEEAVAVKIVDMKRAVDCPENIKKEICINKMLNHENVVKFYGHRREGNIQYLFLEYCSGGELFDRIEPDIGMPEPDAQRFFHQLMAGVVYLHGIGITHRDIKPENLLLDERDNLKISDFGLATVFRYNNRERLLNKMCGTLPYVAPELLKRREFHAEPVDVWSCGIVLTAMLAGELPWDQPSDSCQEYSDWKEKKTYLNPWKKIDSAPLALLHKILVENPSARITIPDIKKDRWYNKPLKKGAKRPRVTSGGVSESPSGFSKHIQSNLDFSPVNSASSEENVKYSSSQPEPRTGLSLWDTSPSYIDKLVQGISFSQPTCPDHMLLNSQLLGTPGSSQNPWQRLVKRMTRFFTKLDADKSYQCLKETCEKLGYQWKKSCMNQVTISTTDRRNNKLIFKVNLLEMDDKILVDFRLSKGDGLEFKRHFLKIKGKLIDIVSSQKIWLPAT
UniProt P28072, 35-239 limits assumed: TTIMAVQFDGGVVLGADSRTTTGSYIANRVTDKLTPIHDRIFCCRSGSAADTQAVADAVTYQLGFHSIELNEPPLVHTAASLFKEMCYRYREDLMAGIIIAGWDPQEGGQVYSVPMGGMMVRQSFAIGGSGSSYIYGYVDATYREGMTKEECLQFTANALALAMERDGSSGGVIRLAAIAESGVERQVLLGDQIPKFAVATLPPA
UniProt P34913, whole entry: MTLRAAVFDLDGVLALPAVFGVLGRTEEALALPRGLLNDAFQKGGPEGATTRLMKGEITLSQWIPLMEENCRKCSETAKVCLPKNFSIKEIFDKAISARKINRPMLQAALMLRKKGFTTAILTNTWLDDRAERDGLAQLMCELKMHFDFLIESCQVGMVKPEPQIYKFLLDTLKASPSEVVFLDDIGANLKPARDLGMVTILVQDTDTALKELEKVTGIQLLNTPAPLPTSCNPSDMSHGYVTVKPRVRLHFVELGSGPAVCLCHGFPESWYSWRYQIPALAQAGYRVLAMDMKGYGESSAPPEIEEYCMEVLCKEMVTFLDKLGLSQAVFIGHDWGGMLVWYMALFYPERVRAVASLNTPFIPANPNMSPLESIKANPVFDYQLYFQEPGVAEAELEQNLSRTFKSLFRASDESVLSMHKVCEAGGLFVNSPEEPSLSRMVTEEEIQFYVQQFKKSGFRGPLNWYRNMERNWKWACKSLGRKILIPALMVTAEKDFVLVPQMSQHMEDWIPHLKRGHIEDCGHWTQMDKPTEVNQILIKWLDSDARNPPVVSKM
UniProt O15151, 23-111 limits assumed: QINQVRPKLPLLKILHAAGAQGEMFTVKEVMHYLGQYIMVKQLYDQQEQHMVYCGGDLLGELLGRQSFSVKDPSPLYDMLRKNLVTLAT
UniProt P18440, whole entry: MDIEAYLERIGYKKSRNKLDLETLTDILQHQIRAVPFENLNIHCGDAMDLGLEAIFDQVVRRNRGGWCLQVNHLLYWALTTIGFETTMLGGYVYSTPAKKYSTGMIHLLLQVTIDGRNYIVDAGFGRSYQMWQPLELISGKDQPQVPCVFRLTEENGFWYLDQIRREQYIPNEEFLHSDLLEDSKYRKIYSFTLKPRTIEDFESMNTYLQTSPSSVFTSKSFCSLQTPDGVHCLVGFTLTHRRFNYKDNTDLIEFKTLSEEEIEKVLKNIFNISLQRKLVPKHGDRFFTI
UniProt Q16539, whole entry: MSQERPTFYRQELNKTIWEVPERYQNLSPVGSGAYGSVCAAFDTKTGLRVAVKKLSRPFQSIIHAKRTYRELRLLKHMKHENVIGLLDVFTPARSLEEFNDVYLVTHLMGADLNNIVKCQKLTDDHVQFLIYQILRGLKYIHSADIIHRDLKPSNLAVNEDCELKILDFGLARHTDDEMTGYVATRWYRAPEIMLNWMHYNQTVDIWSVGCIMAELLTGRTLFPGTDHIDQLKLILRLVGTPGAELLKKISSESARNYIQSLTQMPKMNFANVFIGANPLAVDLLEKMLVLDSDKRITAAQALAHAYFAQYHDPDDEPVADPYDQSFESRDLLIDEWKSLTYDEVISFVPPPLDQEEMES
UniProt P10276, 183-417 limits assumed: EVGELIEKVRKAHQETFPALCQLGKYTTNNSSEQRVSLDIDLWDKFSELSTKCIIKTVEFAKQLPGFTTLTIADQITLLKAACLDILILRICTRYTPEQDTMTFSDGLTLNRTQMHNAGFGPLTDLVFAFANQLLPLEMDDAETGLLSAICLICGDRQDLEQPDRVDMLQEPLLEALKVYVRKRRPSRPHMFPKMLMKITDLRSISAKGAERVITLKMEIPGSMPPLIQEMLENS

Cc1ccc(S(=O)(=O)Nc2ccccc2C(=O)Nc2nc(-c3ccccc3)cs2)cc1
IC50 (Galactokinase (GALK1, Homo sapiens, UniProt P51570); enzyme activity, inhibitor, Kinase-Glo luminescence; added: ATP 35 µM, galactose 100 µM): 3500 nM

Cc1ccc(-c2n[nH]cc2-c2ccnc3ccccc23)nc1
IC50 (Serine/threonine protein kinase YCK2 (YCK2, Candida albicans, UniProt A0A1D8PKB4); kinase activity, inhibitor, ADP-Glo; added: ATP 20 µM): 4700 nM

COc1ccc(C=CC(=O)c2ccc(O)cc2)c(O)c1
IC50 (ALOX5; 5-LOX product formation, RP-HPLC; human PMNL; added: A23187 and arachidonic acid): 4400 ± 700 nM

N#Cc1c(-c2ccc(Cl)cc2Cl)n(-c2nc(-c3ccc(Cl)cc3)c3c(NC(=O)c4ccccc4)nnc-3[nH]2)[nH]c1=O
cell growth (SK-MEL-5; SRB; 10 µM): 0.62%

CCCCCN(CCc1ccc(Cl)c(Cl)c1)C[C@H](O)COc1ccc(NS(C)(=O)=O)cc1
IC50 (Grin1/Grin2b; pH 6.9): 160 nM

C=C(C)C(=O)Nc1ccc(-c2c(-c3ccc(Oc4nccc(C)n4)c(F)c3)c3c(N)ncnc3n2C)cc1
IC50 (MFE-296; cell growth, CellTiter-Glo; 120 h): 99.3 nM

NC12CC3CC(F)(CC(C1)c1ccccc13)C2
IC50 (Glutamate NMDA receptor; Grin1/Grin2a (Grin1/Grin2a, Rattus norvegicus, UniProt P35439+Q00959); ion current, channel blocker, whole-cell patch clamp; tsA201 cells; 0.2 mM Mg2+, -65 mV, added: 1 mM glutamate): 21400 ± 560 nM

COc1ccc2[nH]c(C(=O)Nc3ccc(C(CC(C)C)=NNC(=N)N)cc3)cc2c1
IC50 (Serine/threonine-protein kinase Chk1 (CHEK1, Homo sapiens, UniProt O14757); kinase activity, inhibitor, IMAP fluorescence polarization): 59000 nM

CC/C=C\C/C=C\CCC/C=C/C=C/C=C\CCCC(=O)O
IC50 (DNA polymerase (POLA1, Bos taurus, UniProt A0AAA9TD94); enzyme activity, inhibitor; calf polymerase alpha): 14500 ± 900 nM

COc1cc(O)ccc1C(=O)C=Cc1ccc(O)cc1
IC50 (ALOX5; 5-LOX product formation, RP-HPLC; human PMNL; added: A23187 and arachidonic acid): 6500 ± 400 nM

CC(C)CC(NC(=O)C(Cc1ccccc1)NC(=O)c1cnc(C(=O)NC(Cc2ccccc2)C(=O)NC(CC(C)C)B(O)O)cn1)B(O)O (stereo not shown)
IC50 (Proteasome subunit beta type-6 (PSMB6, Homo sapiens, UniProt P28072); caspase-like activity, inhibitor, Proteasome-Glo; MM1.S; 24 h): 9.2 ± 0.32 nM

CCCCNC(=O)C(=O)NCCCC/C=C\CCCCCCC1=NOS(=O)N1 (stereo not shown)
IC50 (Bifunctional epoxide hydrolase 2 (EPHX2, Homo sapiens, UniProt P34913); epoxide hydrolase activity, inhibitor; 5 min preincubation, pH 7.0, 30 °C): > 500 nM

COc1ccc(C2=N[C@@H](c3cccc(Cl)c3)[C@@H](c3ccc(Cl)cc3)N2C(=O)N2CCNC(=O)C2)c(OC(C)C)c1 (relative stereo)
IC50 (Protein Mdm4, N-terminal domain (MDM4, Homo sapiens, UniProt O15151); MdmX-p53 binding, fluorescence polarization; MdmX residues 23-111): 7000 nM

CC(C)N(CCc1ccc(Cl)c(Cl)c1)C[C@H](O)COc1ccc(NS(C)(=O)=O)cc1
IC50 (Grin1/Grin2b; pH 7.6): 620 nM

CCOC(=O)Oc1ccc2c(c1OC(=O)OCC)C(=O)c1ccccc1C2=O
IC50 (Arylamine N-acetyltransferase 1 (NAT1, Homo sapiens, UniProt P18440); enzyme activity, inhibitor; recombinant in yeast lysate; added: 10 µM 4-aminobiphenyl and 100 µM acetyl-CoA): 996 ± 200 nM

COc1cc(O)c([C@@H](CCc2ccc(O)cc2OC)c2ccc(O)cc2)cc1CCC(=O)c1ccc(O)cc1
IC50 (ALOX5; enzyme activity; cell-free): 590 nM

CC(C)C[C@H](NC(=O)[C@H](C)NC(=O)[C@H](CCCNC(=N)N)NC(=O)[C@H](CCCNC(=N)N)NC(=O)[C@H](CCCNC(=N)N)NC(=O)[C@H](C)NC(=O)[C@H](CC(C)C)NC(=O)[C@H](CCCNC(=N)N)NC(=O)[C@H](CO)NC(=O)[C@H](CCCCN)NC(=O)[C@H](CO)NC(=O)Cn1cc(COC(=O)[C@]2(C)C=C(C(=O)OC(C)(C)C)C(=O)CC2)nn1)C(=O)O
normalized kinase activity (Mitogen-activated protein kinase 14 (MAPK14, Homo sapiens, UniProt Q16539); enzyme activity, inhibitor, D-SENSOR; 0.01016 µM): 0.963

COc1ccc2c(c1)O[C@@H](c1ccc(O)cc1)CC2
IC50 (ALOX5; enzyme activity; cell-free): 5700 nM

CN(C)CCNC(=O)c1cc([N+](=O)[O-])cc2ccc(-c3ccccc3)nc12
IC50 (NQO2; enzyme activity, inhibitor; added: 200 µM NRH, DCPIP, 2 µM BSA): 40 ± 4 nM

CON(C1CC[C@@]2(C)[C@H](CC[C@@H]3[C@@H]2CC[C@]2(C)[C@@H](c4ccc(=O)oc4)CC[C@]32O)C1)C1OCC(O)C(O)C1O (stereo partly shown)
IC50 (Sodium/potassium-transporting ATPase subunit alpha-1, with beta-1 subunit (Atp1a1, Rattus norvegicus, UniProt P06685); Na+/K+ pump current, inhibitor, two-electrode voltage clamp; Xenopus oocytes expressing rat α1/β1; holding potential -60 mV, endogenous current subtracted): 63 nM

CCN(CC)CCCC(C)Nc1cc(-c2ccccc2)nc2cc(OC)ccc12 (stereo not shown)
IC50 (NQO2; enzyme activity, inhibitor; no BSA, added: 200 µM NRH, DCPIP): 550 ± 50 nM

CCOC(=O)c1c(-c2ccc(Cl)cc2Cl)n(-c2nc(-c3ccc(Cl)cc3)c3c(NC(=O)c4ccccc4)nnc-3[nH]2)[nH]c1=O
cell growth (SK-OV-3; SRB; 10 µM): 19.9%

CCOC(=O)C(C)Oc1ccc2c(=O)n(CC(=O)Nc3ccc4c(c3)OCCO4)ccc2c1 (stereo not shown)
IC50 (Retinoic acid receptor alpha (RARA, Homo sapiens, UniProt P10276); inverse agonist, Gal4 UAS-luciferase reporter; HEK293T cells): 360 nM

CCCN(CCc1ccc(Cl)c(Cl)c1)C[C@H](O)COc1ccc(NS(C)(=O)=O)cc1
IC50 (Grin1/Grin2b; pH 7.6): 480 nM

CN(C)CCNC(=O)c1cccc2ccc(-c3ccc(-c4ccccc4)cc3)nc12
IC50 (NQO2; enzyme activity, inhibitor; no BSA, added: 200 µM NRH, DCPIP): 70 ± 10 nM

Excerpt of the above:
CC(C)N(CCc1ccc(Cl)c(Cl)c1)C[C@H](O)COc1ccc(NS(C)(=O)=O)cc1
IC50 (Grin1/Grin2b; pH 7.6): 620 nM

CCOC(=O)Oc1ccc2c(c1OC(=O)OCC)C(=O)c1ccccc1C2=O
IC50 (Arylamine N-acetyltransferase 1 (NAT1, Homo sapiens, UniProt P18440); enzyme activity, inhibitor; recombinant in yeast lysate; added: 10 µM 4-aminobiphenyl and 100 µM acetyl-CoA): 996 ± 200 nM

COc1cc(O)c([C@@H](CCc2ccc(O)cc2OC)c2ccc(O)cc2)cc1CCC(=O)c1ccc(O)cc1
IC50 (ALOX5; enzyme activity; cell-free): 590 nM

CC(C)C[C@H](NC(=O)[C@H](C)NC(=O)[C@H](CCCNC(=N)N)NC(=O)[C@H](CCCNC(=N)N)NC(=O)[C@H](CCCNC(=N)N)NC(=O)[C@H](C)NC(=O)[C@H](CC(C)C)NC(=O)[C@H](CCCNC(=N)N)NC(=O)[C@H](CO)NC(=O)[C@H](CCCCN)NC(=O)[C@H](CO)NC(=O)Cn1cc(COC(=O)[C@]2(C)C=C(C(=O)OC(C)(C)C)C(=O)CC2)nn1)C(=O)O
normalized kinase activity (Mitogen-activated protein kinase 14 (MAPK14, Homo sapiens, UniProt Q16539); enzyme activity, inhibitor, D-SENSOR; 0.01016 µM): 0.963
